Assay results collected from several papers.
Parts stem from different laboratories: compare values within a part only. Substitutions count along the parent as printed.

Set 1
Target: Ras GTPase-activating protein-binding protein 1, full length (G3BP1, Homo sapiens, UniProt Q13283)
UniProt Q13283, sequence (whole entry, looked up): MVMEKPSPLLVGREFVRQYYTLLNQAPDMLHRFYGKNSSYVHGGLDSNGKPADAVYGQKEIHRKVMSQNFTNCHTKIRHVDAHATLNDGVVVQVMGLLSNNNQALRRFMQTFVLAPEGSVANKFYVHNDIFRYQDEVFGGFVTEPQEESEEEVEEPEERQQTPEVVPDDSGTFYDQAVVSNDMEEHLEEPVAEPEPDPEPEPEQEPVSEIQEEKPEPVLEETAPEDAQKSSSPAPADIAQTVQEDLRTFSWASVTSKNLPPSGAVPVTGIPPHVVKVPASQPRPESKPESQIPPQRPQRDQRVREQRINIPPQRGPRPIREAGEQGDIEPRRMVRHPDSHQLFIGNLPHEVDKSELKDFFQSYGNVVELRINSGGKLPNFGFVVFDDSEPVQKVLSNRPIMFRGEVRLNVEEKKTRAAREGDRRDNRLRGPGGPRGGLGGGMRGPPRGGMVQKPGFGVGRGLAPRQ
Method: RNA Bind-n-Seq
Form: RNA
Medium: in vitro
Concentration: 200 nM
Setting: whole 134-nt RNA, ends assumed
Together with: 150 mM KCl
Relative to: input library
Direction: higher = stronger binding
Endpoint: log2 enrichment
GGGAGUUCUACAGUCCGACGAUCCUGUGCUACACAUCGUAUGUACCGAAUCGGGUUUUUUUGGGGUUUUUUUGGUUUUUUUGGGGAAAGUAUUAUGUUACGCCGUUCGGAUCUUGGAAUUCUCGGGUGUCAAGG: -1
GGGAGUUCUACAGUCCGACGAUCCACAGACAACACGCACCCACACAGACACAGAGGGUAGGGGUUGGGAUGGGGACAGGGUGCACAGCAGGGCGGGGUAGGACCCCAGCCCCUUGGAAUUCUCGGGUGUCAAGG: 1.98
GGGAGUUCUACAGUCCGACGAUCCACAGACAACACGCACCCACACAGACACAGAGGGAAGGGGUUGGGAUGGGGACAGGGUGCACAGCAAGGCGGGGUAGGACCCCAGCCCCUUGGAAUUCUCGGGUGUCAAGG: 1.78
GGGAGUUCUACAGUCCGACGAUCGUCCUGUGCUACACAUCGUAUGUACCGAAUCGGGCCCCCCGGCCCCCCGGCCCCCCGGGAAAGUAUUAUGUUACGCCGUUCGGAUCUGCAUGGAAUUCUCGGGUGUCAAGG: -0.31
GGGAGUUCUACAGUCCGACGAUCCACAGACAACACGCACCCACACAGACACAGAGGGAAGGGGUUGGGAUGGGGACAGGGUGCACAGCAGGGCGGGGUAGGACGCCAGCCCCUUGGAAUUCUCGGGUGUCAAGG: 1.92
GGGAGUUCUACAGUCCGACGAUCUCCUGUGCUACACAUCGUAUGUACCGAAUCGGGAAAAAGGGAAAAAGGGUUUUUUUGGGAAAGUAUUAUGUUACGCCGUUCGGAUCUGCAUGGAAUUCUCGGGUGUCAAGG: -0.501
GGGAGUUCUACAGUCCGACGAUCGUCCUGUGCUACACAUCGUAUGUACCGAAUCGGAAAAAAGGAAAAAAGGAAAAAAGGGGAAAGUAUUAUGUUACGCCGUUCGGAUCUGCAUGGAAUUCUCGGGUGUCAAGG: -0.815
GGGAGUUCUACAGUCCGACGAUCAAGUCCUGUGCUACACAUCGUAUGUACCGAAUCGGGGUGGGGUUUGGGGAAAGGGGAAAGUAUUAUGUUACGCCGUUCGGAUCUGCACUUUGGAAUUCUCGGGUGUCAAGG: 0.981
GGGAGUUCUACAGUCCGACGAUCCAAGUCCUGUGCUACACAUCGUAUGUACCGAAUCGGGUGGGUUUUUUUGGGUGGGAAAGUAUUAUGUUACGCCGUUCGGAUCUGCACUUCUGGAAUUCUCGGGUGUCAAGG: 0.244
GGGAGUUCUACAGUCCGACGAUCGUUAAUUCCACCAUCCCCAUCACAGCAGAAGUUUUCAAGAAGCAUGGAGUGUACAACCCCAACAAAAUCUUCGGCGUGACGACCCUGGACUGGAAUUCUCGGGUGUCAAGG: 1.18

Set 2
Target: CCNB1, cyclin fold, Cln2 fusion (human)
Method: yeast growth competition, sequencing
Medium: yeast
Setting: weak parent motif
Relative to: not given
Direction: higher = stronger binding
Endpoint: normalised enrichment score
Starting sequence: RB1 docking peptide (human); PKPLKKLRFDIEG
PLPLKKLRFDIEG [K2L]: 0.949
PKPLKKLRFDPEG [I11P]: 0.94
PKPLKKLEFDIEG [R8E]: 0.306
HKPLKKLRFDIEG [P1H]: 1.1
PKPLKKLRFRIEG [D10R]: 1.21
PKCLKKLRFDIEG [P3C]: 2.21
NKPLKKLRFDIEG [P1N]: -0.0121
PKPLKKLRFDITG [E12T]: 0.892
PKPLKKLRFDTEG [I11T]: -0.224
PKPLKKLRFWIEG [D10W]: 0.171
PKPLKKLREDIEG [F9E]: 0.000962
PKPPKKLRFDIEG [L4P]: 0.38
PKPLKKLRFDIAG [E12A]: 0.0497
EKPLKKLRFDIEG [P1E]: 0.831
PKALKKLRFDIEG [P3A]: 1.08
SKPLKKLRFDIEG [P1S]: 0.11
PKPLKKLKFDIEG [R8K]: 0.266
PKPLKKLPFDIEG [R8P]: 0.24
PKPAKKLRFDIEG [L4A]: 0.89
PTPLKKLRFDIEG [K2T]: 0.105
PKPLKKLSFDIEG [R8S]: 0.419
PKPLKKHRFDIEG [L7H]: 0.0838
PKPLKKMRFDIEG [L7M]: 0.695

Set 3
Target: RNA binding protein fox-1 homolog 2, RRM domain, GST-SBP tag (RBFOX2, Homo sapiens, UniProt O43251-10, residues 100-194)
Method: RNA Bind-n-Seq
Form: RNA
Medium: in vitro
Concentration: 365 nM
Setting: natural RNA segment, single round, ends assumed
Relative to: no-protein control
Direction: higher = stronger binding
Endpoint: RBNS enrichment (R)
Residues (chain): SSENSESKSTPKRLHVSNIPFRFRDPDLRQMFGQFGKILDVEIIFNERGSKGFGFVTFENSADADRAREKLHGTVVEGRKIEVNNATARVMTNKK
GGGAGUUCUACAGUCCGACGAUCAUUUCCCAUUCCAAAAACUGGCUAGACAAAGGACAAGGAACGGUCAAGAACAGCUCUCCAUGGCUUUGCCUUGACUGUUGUUCCUCCCUUUGCCUUUCCCGCUCCCACUAUGGAAUUCUCGGGUGCCAA: 0.241
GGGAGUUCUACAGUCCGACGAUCUUUGUAACAUAUUAAUUAUAAAUAUUGUAUUUAUCUUUGAAAUUUUGUACAUUGCUUUCCCUGCCUUCUUUUUUCACGUCUGUUUUGGUGUUUGAUCCCUGCCCAGUGUUUGGAAUUCUCGGGUGCCAA: 1.73
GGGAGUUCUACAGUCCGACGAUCCAAGUGACAGGAAAGAUUCCCUGGUCUGCAUCUAAACAUUAGUCAACAGAAGGAAAAGGCUCUUUUCCUUGGAGAUUUUCAAGUUGAAAAAGUACAGCUGCUUGGAUGGAUGGAAUUCUCGGGUGCCAA: 0.289
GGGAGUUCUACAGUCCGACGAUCUGAAUGACCCCUGGAGGCCGAGGGGGCAGGCUUCGGGCGUGAACUGAACUCCAGACCCCUCUUUGUGUUGGGCAGUGUCAUCUUGCUUACAAACUGUAAGACACAUUUUUUGGAAUUCUCGGGUGCCAA: 1.31
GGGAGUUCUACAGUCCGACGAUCGGCUCUGUGGGCUGUGCUCAGUCUGUGGCCCAGCACCCCUGCCCUAGAAAGGGGCAACACAGGGUACUACUUGAACUUUCCUAUCACAGCUCCCAUGCCACAGAGGGACAUGGAAUUCUCGGGUGCCAA: 0.309
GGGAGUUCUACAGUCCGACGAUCGAAAAUUCUCAACAAUAAUGUUUGCCUUCUAGUUUAAGACAUGGUGUAUUUUAGAAAUUACCUGAAGUGAAGCUAUCACGAAGUGAGUGUAUCACCUGGUGAGCGAGUGAUGGAAUUCUCGGGUGCCAA: 0.375
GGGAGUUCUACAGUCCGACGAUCAUCCUCCUUGGUAUCAUGAAACUGGAGCAGAGGAAUUGCAAUUUAGCAGGAGGUCCUCUACUGGUGAUACCCUCACCUUGGGGUAAUGGUCCUAACCCAGACCCAGGGUCUGGAAUUCUCGGGUGCCAA: 0.237
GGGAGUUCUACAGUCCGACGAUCGUGUCAGGGGCAGAGAGUGAUGGGCACGAUUUAACAGGGAAAGAAAUGGGGCCAACAGUUCUUCCUGUUCGGUGCAGCGGGUGCUAGUAGGAUGCCCUAGUCCUUGAUGGUGGAAUUCUCGGGUGCCAA: 1.01
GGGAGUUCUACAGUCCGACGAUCCAGGCAAAAGUGGAGGGUGCCUUAUGGGCCCUCCUCAUAGGUUGUCUCUGCAUACACGAACCUAACCCAAAUUUGCUUUGGUGCCAGAAAAACUGAGCUAUGUUUGAACAUGGAAUUCUCGGGUGCCAA: 0.389
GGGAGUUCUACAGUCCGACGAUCUUCUCUCUUCAAUUAAGGAAUUUUCAUAAUGGAAUGGUUUAAAUUGAAGUGAUAAAGAAUAUUAUUAGAAUAAAAUGUUUGUAUAUGUAUUUGUGUAUUAAAGAUGUAUUUGGAAUUCUCGGGUGCCAA: 1.38
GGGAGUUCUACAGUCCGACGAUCUAUGUGAAUAACUUGACUUGCAUUGAUCUUUUUACAUAUUUAAUAAAAAAAAAAGUAUAUGUUAAAAUCUGCCUGGAGUUACAGAUUCUUAAAUUUUUAUGCUGAAGCUUUGGAAUUCUCGGGUGCCAA: 2.68
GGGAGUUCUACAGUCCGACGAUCAAUAUUUAUGGGUGAAUUGAUGCCACAAAAGUAAUAUGAUUGCCCACCUCAACCUGGCAUUCUGUGUUAAUAAUACAGAUACUAUUUUUAUAAAAUCAUUUUCAAGUUUCUGGAAUUCUCGGGUGCCAA: 0.598

Mixed results
PhoQ, residues 284 288 289 292 302 303 SSYNSA — fold induction (PhoP, residues 12 14 15 18 19 SEGLL (Escherichia coli, UniProt P23836); Sort-seq, measured: YFP reporter; E. coli; PhoQ-PhoP variant library, together with: 10 µM Mg2+; relative to: high Mg2+ state, higher = stronger signaling): 11.3

A few entries again (set 2):
PKPLKKLSFDIEG [R8S]: 0.419
PKALKKLRFDIEG [P3A]: 1.08
PKPLKKLRFRIEG [D10R]: 1.21
SKPLKKLRFDIEG [P1S]: 0.11
NKPLKKLRFDIEG [P1N]: -0.0121
PKPLKKMRFDIEG [L7M]: 0.695
